Experimental data collected from several papers.
Each line is one published result; not all experiments were run side by side. ± marks the error that the study gave.
CHRM1: Muscarinic acetylcholine receptor M1 (CHRM1, Homo sapiens, UniProt P11229)
UniProt P11229, sequence (whole entry, looked up): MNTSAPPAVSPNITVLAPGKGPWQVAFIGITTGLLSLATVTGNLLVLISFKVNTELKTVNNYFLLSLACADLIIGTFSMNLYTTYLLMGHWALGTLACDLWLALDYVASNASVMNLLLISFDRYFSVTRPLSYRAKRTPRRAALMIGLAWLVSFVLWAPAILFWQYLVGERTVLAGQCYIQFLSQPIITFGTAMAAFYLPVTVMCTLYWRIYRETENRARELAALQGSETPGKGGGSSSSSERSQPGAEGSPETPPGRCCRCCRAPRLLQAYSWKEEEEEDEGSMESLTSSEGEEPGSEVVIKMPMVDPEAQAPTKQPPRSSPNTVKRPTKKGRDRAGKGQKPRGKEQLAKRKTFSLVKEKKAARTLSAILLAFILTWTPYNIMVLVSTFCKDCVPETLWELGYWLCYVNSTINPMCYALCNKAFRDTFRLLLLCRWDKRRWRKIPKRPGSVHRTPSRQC

Substance | target or system | test | system | setting | how to read | measurement | result
Cn1cc(-c2ccc(COc3ccccc3-c3cc(=O)n(C4CCCCC4O)cn3)c(F)c2)cn1 (centres unmarked) | CHRM1 | positive allosteric modulator, IP1 accumulation | CHO-M1 cells | 1 µM, 60 min, 37 °C, together with: ACh | relative to: ACh alone, higher = stronger potentiation | ΔpEC50 of ACh | 1.38 ± 0.19 log units
CC1CCc2nc(N)c(C#N)c(-c3cccnc3)c2C1 (centres unmarked) | mouse bone marrow-derived dendritic cells | IL-10 release |  | pretreated 48 h, together with: zymosan A for 18 h |  | EC50 | ~1 µM
CCN(CC)c1ccc(C2Nc3ccc(-c4ccccc4)cc3NC3=C2C(=O)CC(C)(C)C3)cc1 (centres unmarked) | SH-SY5Y | cell growth or viability, MTS |  |  |  | EC50 | 11.4 µM
N[C@@H](CS(=O)(=O)O)C(=O)O | cerebellar granule cells | neuroprotection |  |  |  | EC50 | 23 µM
tetraglycine | HLA-DRB1*01-restricted CD4 T-cell clone | TNF-alpha production |  | MHC class II presentation, together with: peptide-loaded mature macrophage-derived DC |  | EC50 | 0.035 µM
NC(=S)N/N=C1\C(=O)Nc2ccccc21 | pancreatic cancer cell lines | cell viability |  | 48 h, over all lines tested |  | EC50 | > 100 µM
N[C@@H](CS(=O)O)C(=O)O | cerebellar granule cells | neuroprotection |  |  |  | EC50 | 28 µM
CCCCN1CCc2cc(OC)c(OC)cc2C1 | pancreatic cancer cell lines | cell viability |  | 48 h, over all lines tested |  | EC50 | > 100 µM
CCN(CC)c1ccc(C2Nc3ccc(Cl)cc3NC3=C2C(=O)CC(C)(C)C3)cc1 (centres unmarked) | SH-SY5Y | cell growth or viability, MTS |  |  |  | EC50 | > 50 µM
CCNC(=O)Nc1ccc(S(=O)(=O)Oc2cccnc2C(C)C)cc1 | THP-1 cells | CD11b+CD14+ differentiation, flow cytometry |  | 120 h |  | EC50 | 8 µM
CNC(=O)c1cc(O[C@H]2CC[C@H](NC(=O)Nc3ccc(Cl)c(C(F)(F)F)c3)CC2)ccn1 | Huh-7 | cell growth or viability, MTT |  | 72 h |  | EC50 | 8 µM
CCN(CC)c1ccc(C2Nc3ccc(C(=O)c4ccccc4)cc3NC3=C2C(=O)CC(C)(C)C3)cc1 (centres unmarked) | SH-SY5Y | cell growth or viability, MTS |  |  |  | EC50 | ~7 µM
Cc1ccc(COc2ccccc2-c2cc(=O)n(C3CCCCC3O)cn2)cc1 (centres unmarked) | CHRM1 | positive allosteric modulator, IP1 accumulation | CHO-M1 cells | 1 µM, 60 min, 37 °C, together with: ACh | relative to: ACh alone, higher = stronger potentiation | ΔpEC50 of ACh | 0.84 ± 0.14 log units
CCN(CC)c1ccc(C2Nc3ccc(C(F)(F)F)cc3NC3=C2C(=O)CCC3)cc1 (centres unmarked) | SH-SY5Y | cell growth or viability, MTS |  |  |  | EC50 | > 50 µM
COc1cc2c(cc1OC)C(=O)N(CCCCN1C(=O)/C(=N\NC(=S)N(C)C)c3ccccc31)CC2 | pancreatic cancer cell lines | cell viability |  | 48 h, over all lines tested |  | EC50 | 2.18 to 10.3 µM
[Au(mba)(PPh3)] | MCF-10A | cell viability |  | 72 h |  | EC50 | 5.52 ± 0.36 µM
fibronectin | BHK | cell spreading on coated substance |  | coating concentration |  | EC50 | 0.004 µM
CC1(C)CC(=O)C2=C(C1)Nc1cc(Br)ccc1NC2c1ccc(N2CCCCC2)cc1 (centres unmarked) | SH-SY5Y | cell growth or viability, MTS |  |  |  | EC50 | 31.4 µM
insulin icodec | COLO 205 | DNA synthesis, agonist, 3H-thymidine incorporation |  | HSA 0% |  | EC50 | 0.073 µM
O=C1CCC(N2C(=O)c3cccc(NCCOCCOCCOCCN4CCN(c5ccc(-c6ccc7c(c6)C(=O)N(C(C(=O)Nc6nccs6)c6cc(F)ccc6F)C7)cc5)CC4)c3C2=O)C(=O)N1 (centres unmarked) | Ba/F3 EGFR L858R/T790M | cell proliferation |  |  |  | EC50 | 0.15 µM
C#Cc1cccc(Nc2ncnc3cc(OCCOC)c(OCCOC)cc23)c1 | human tumour organoids | viability, CellTiter-Glo |  | 72 h |  | EC50 | 12 µM
N=C(N)NCCC[C@H](NC(=O)[C@@H]1CCCN1C(=O)[C@@H]1CSSC[C@H](N)C(=O)N[C@@H](Cc2ccc(O)cc2)C(=O)N[C@@H](Cc2ccccc2)C(=O)N[C@@H](CCC(N)=O)C(=O)N[C@@H](CC(N)=O)C(=O)N1)C(=O)NCC(N)=O | hiPSC-derived cardiomyocytes | intracellular Ca2+ increase, FLIPR |  |  |  | EC50 | 0.121 µM
O=c1cc(-c2ccc([N+](=O)[O-])cc2)[nH]c2c(-c3ccc(Cl)cc3)c(Cc3ccccc3)nn12 | MCF-10A | cell growth or viability, ATP luminescence |  |  |  | EC50 | 10 µM
CC1(C)CC(=O)C2=C(C1)Nc1cc(C(F)(F)F)ccc1NC2c1ccc(N2CCCC2)cc1 (centres unmarked) | SH-SY5Y | cytoprotection |  | together with: thapsigargin 7.5 µM |  | EC50 | < 20 µM
O=C1c2c(O)ccc(O)c2C(=O)c2c(NCCNCCO)ccc(NCCNCCO)c21 | Trp53-null mouse neurospheres | cell proliferation |  | 72 h |  | EC50 | 0.19 µM
CCCCN(CCCC)c1ccc(C2Nc3ccc(Cl)cc3NC3=C2C(=O)CC(C)(C)C3)cc1 (centres unmarked) | SH-SY5Y | cell growth or viability, MTS |  |  |  | EC50 | > 50 µM
insulin human | rat primary adipocytes | lipogenesis, agonist, [3H]glucose incorporation into lipid |  | 0.1% HSA |  | EC50 | 4.1e-05 µM
CC1(C)CC(=O)C2=C(C1)Nc1cc(-c3ccccc3)ccc1NC2c1ccc(N2CCOCC2)cc1 (centres unmarked) | SH-SY5Y | cell growth or viability, MTS |  |  |  | EC50 | 21.7 µM
O=C1CCC(N2C(=O)c3cccc(NCCOCCOCCOCCN4CCN(c5ccc(-c6ccc7c(c6)C(=O)N(C(C(=O)Nc6nccs6)c6cc(F)ccc6O)C7)cc5)CC4)c3C2=O)C(=O)N1 (centres unmarked) | Ba/F3 EGFR L858R/T790M | cell proliferation |  |  |  | EC50 | 0.48 µM

Repeated from above:
Substance | target or system | test | system | setting | how to read | measurement | result
CC1(C)CC(=O)C2=C(C1)Nc1cc(-c3ccccc3)ccc1NC2c1ccc(N2CCOCC2)cc1 (centres unmarked) | SH-SY5Y | cell growth or viability, MTS |  |  |  | EC50 | 21.7 µM
CC1(C)CC(=O)C2=C(C1)Nc1cc(Br)ccc1NC2c1ccc(N2CCCCC2)cc1 (centres unmarked) | SH-SY5Y | cell growth or viability, MTS |  |  |  | EC50 | 31.4 µM
O=C1CCC(N2C(=O)c3cccc(NCCOCCOCCOCCN4CCN(c5ccc(-c6ccc7c(c6)C(=O)N(C(C(=O)Nc6nccs6)c6cc(F)ccc6F)C7)cc5)CC4)c3C2=O)C(=O)N1 (centres unmarked) | Ba/F3 EGFR L858R/T790M | cell proliferation |  |  |  | EC50 | 0.15 µM
COc1cc2c(cc1OC)C(=O)N(CCCCN1C(=O)/C(=N\NC(=S)N(C)C)c3ccccc31)CC2 | pancreatic cancer cell lines | cell viability |  | 48 h, over all lines tested |  | EC50 | 2.18 to 10.3 µM
